# Measurements of several laboratories.
# Each line is one published result; not all experiments were run side by side. Numbers after ± are the reported error.
Compound,test,system,setting,how to read,quantity,value
COc1cc(CN2CCN(c3cccc(Cl)c3)CC2)c2cc3[n+](cc2c1O)CCc1cc2c(cc1-3)OCO2,"ABTS scavenging, absorbance",,10 min,,IC50,5.28 µg/mL
COc1ccc(C2CC(c3ccc(C)cc3)=Nc3ccccc3S2)cc1OC (centres unmarked),,"Wistar rat, STZ-induced diabetes","oral, 20 mg/kg once daily, day 14",,blood glucose,155 mg/dL
O=C1c2c(cc(O)c3c2oc2cc(O)c(O)cc23)OC1Cc1ccc(O)cc1 (centres unmarked),"DPPH scavenging, absorbance",,,,EC50,280 µM
Cc1ccc(-c2nc3ccccc3[nH]2)o1,"ABTS scavenging, absorbance",,,,IC50,1.42 µM
Cc1cc(O)c(C=O)c2c1C(=O)Oc1c(CO)c(O)c3c(c1O2)C(O)OC3=O (centres unmarked),ABTS scavenging,,,,IC50,121 µM
O=C1/C(=C/c2ccccc2)Oc2cc(O)c3c(oc4cc(O)c(O)cc43)c21,"DPPH scavenging, absorbance",,,,EC50,200 µM
CCN1CCN(Cn2nc(C34CC5CC(CC(C5)C3)C4)n(-c3ccccc3)c2=S)CC1,paw oedema,rat,"intraperitoneal, 40 mg/kg",,inhibition in vivo,14.1%
O=c1c(OCc2ccccc2)c(-c2ccc(Cl)cc2)oc2ccccc12,,diabetic rat,"7.5 mg/kg, day 28, p-nitrophenyl β-glucoside induced",,blood glucose,140 ± 4.64 mg/dL
CC(=O)Nc1ccc(OC(=O)CCC(=O)[O][Pt-2]23([O]C(=O)CCC(=O)Oc4ccc(NC(C)=O)cc4)([NH2+][C@@H]4CCCC[C@H]4[NH2+]2)[O]C(=O)C(=O)[O]3)cc1,,"BALB/c mouse, 4T1 tumour, tumour tissue",dose not given,reference: PBS,IFN-alpha level,2.4 fold
COc1ccc(C2CC(c3ccc(C)cc3)=Nc3ccccc3S2)cc1 (centres unmarked),,"Wistar rat, STZ-induced diabetes, serum","20 mg/kg, 28 days",,triglycerides,113 ± 4.15 mg/dL
CC[C@H](C)[C@@H]1NC(=O)[C@H](Cc2ccccc2)NC(=O)[C@H](CCC(=O)O)NC(=O)[C@H](CCCNC(=N)N)NC(=O)CNC(=O)[C@@H](NC(=O)[C@H](CC(C)C)NC(=O)[C@H](CCCNC(=N)N)NC(=O)[C@@H](NC(=O)CNC(=O)[C@H](Cc2ccc(O)cc2)NC(=O)[C@@H]2CCCN2C(=O)[C@H](C)NC(=O)[C@H](C)NC(=O)[C@@H](N)CCCNC(=N)N)C(C)C)CSSC[C@@H]2NC(=O)[C@@H](NC(=O)[C@H](CO)NC(=O)[C@H](CO)NC(=O)[C@H](CO)NC(=O)[C@H](CC(C)C)NC(=O)CNC(=O)[C@H](C)NC(=O)[C@H](CC(C)C)NC(=O)[C@@H](NC(=O)[C@@H](N)CC(=O)O)C(C)C)CSSC[C@H](NC(=O)CNC(=O)[C@H](Cc3c[nH]c4ccccc34)NC(=O)[C@H](CCCCN)NC2=O)C(=O)N[C@@H](CO)C(=O)N[C@@H](CCCCN)C(=O)N[C@@H](CO)C(=O)N[C@@H](CCC(=O)O)C(=O)N[C@@H]([C@@H](C)CC)C(=O)N[C@@H](CO)C(=O)N[C@@H](CO)C(=O)N[C@@H](CC(C)C)C(=O)N[C@H](C(=O)O)CSSC[C@@H](C(=O)NCC(=O)NCC(=O)N[C@@H](CO)C(=O)N[C@@H](CCCNC(=N)N)C(=O)N[C@@H](Cc2c[nH]c3ccccc23)C(=O)O)NC(=O)[C@H]([C@@H](C)O)NC(=O)[C@H](Cc2ccccc2)NC(=O)[C@H]([C@@H](C)CC)NC(=O)[C@H](C(C)C)NC(=O)[C@H](C)NC(=O)[C@H](CCCNC(=N)N)NC1=O,forced swim test,female Sprague-Dawley rats,"intranasal, 275 µg/kg, day 2",reference: vehicle,climbing behaviour,increased
CSCC[C@@H]1NC(=O)[C@H](C)NC(=O)[C@H]([C@@H](C)O)NC(=O)CNC(=O)[C@H](CC(C)C)NC(=O)[C@H](CCC(N)=O)NC(=O)[C@H](CCCNC(=N)N)NC(=O)[C@@H]2CSSC[C@@H]3NC(=O)[C@@H]4CCCN4C(=O)[C@H](C(C)C)NC(=O)[C@H](CCC(N)=O)NC(=O)[C@H](CCC(N)=O)NC(=O)CNC(=O)[C@H](CC(C)C)NC(=O)[C@@H]4CSSC[C@H](NC(=O)[C@H]([C@@H](C)O)NC(=O)[C@H](C)NC(=O)[C@H](CSSC[C@@H](C(=O)N[C@@H](CO)C(=O)N[C@@H](CCC(N)=O)C(=O)N[C@H](C(N)=O)[C@@H](C)O)NC(=O)[C@@H]5CCCN5C(=O)[C@H](CC(N)=O)NC1=O)NC(=O)[C@@H]1CCCN1C(=O)[C@H](CC(=O)O)NC(=O)[C@H](CSSC[C@H](NC(=O)[C@H](CCCNC(=N)N)NC(=O)[C@H](CCCNC(=N)N)NC(=O)[C@H](CO)NC(=O)[C@@H](N)CO)C(=O)N[C@@H](C(C)C)C(=O)N[C@@H](CCCNC(=N)N)C(=O)N[C@@H](CC(C)C)C(=O)N[C@@H](Cc1c[nH]cn1)C(=O)N[C@@H](CCC(=O)O)C(=O)N[C@@H](CO)C(=O)N4)NC3=O)C(=O)N[C@@H](Cc1ccc(O)cc1)C(=O)N[C@H]1CSSC[C@H](NC(=O)[C@H](Cc3ccccc3)NC(=O)[C@H](C)NC(=O)[C@H](CC(N)=O)NC(=O)[C@H](Cc3ccccc3)NC(=O)[C@H](Cc3ccccc3)NC(=O)[C@H](CCCNC(=N)N)NC1=O)C(=O)N[C@@H](Cc1ccc(O)cc1)C(=O)N2,,male Long-Evans rats,"intracerebroventricular, 1.0 nmol, day 5",reference: saline,food intake,14.1 ± 2.3 % above saline
Nc1nc2cc(CC[C@H]3C[C@@H](n4ccc5c(N)ncnc54)[C@H](O)[C@@H]3O)ccc2cc1Br,"inhibitor, item: SmD1/3 dimethylarginine","mice, NCI-H1048 xenograft, tumour","10 mg/kg, 144 h, after 6 days treatment",,reduction,> 95%
CC(C)[C@H](NC(=O)CN)C(=O)N[C@@H](CCCCN)C(=O)NCC(=O)N[C@@H](CC(=O)O)C(=O)N[C@@H](CCCCN)C(=O)NCC(=O)N[C@@H](CC(N)=O)C(=O)N1CCC[C@H]1C(=O)NCC(=O)N[C@@H](Cc1c[nH]c2ccccc12)C(=O)N1CCC[C@H]1C(=O)NCC(=O)N[C@@H](C)C(=O)N1CCC[C@H]1C(=O)O,,"C6 glioma, rat","100 µg/mL coating, peptide-coated plates",reference: input cells,cell adhesion,35.9%
CC(C)C[C@@H]1NC(=O)[C@H](CS)NC(=O)[C@H](CCCCN)NC(=O)[C@H](CC(=O)O)N(C(=O)[C@@H](N)Cc2c[nH]c3ccccc23)CCCNC(=O)NCCCCN([C@@H](C)C(N)=O)C1=O,micro-CT,DBA/1 mouse collagen-induced arthritis,"intraperitoneal, 360 pg/g weekly",reference: PBS,bone destruction,no effect
O=C1/C(=C/c2ccc(O)cc2)Oc2c1c(O)cc1oc3cc(O)c(O)cc3c21,"DPPH scavenging, absorbance",,,,EC50,320 µM
Cc1ccc(-c2oc3ccccc3c(=O)c2OCc2ccccc2)cc1,,diabetic rat,"5 mg/kg, day 28, p-nitrophenyl β-glucoside induced",,blood glucose,143 ± 4.9 mg/dL
N#Cc1cc(C(=O)OCC[18F])c(C(F)(F)F)nc1N1CCN(C(=O)Cc2ccccc2)CC1,PET,"human, epileptic focus",,,SUVmean,1.29 ± 0.28
O=c1c(OCc2ccccc2)c(-c2ccc([N+](=O)[O-])cc2)oc2ccccc12,,diabetic rat,"7.5 mg/kg, day 7, p-nitrophenyl β-glucoside induced",,blood glucose,328 ± 4.54 mg/dL
CCCCCCCCC=CCCCCCCCC(=O)OCC1OC(n2ccc(N)nc2=O)C(F)(F)C1O (centres unmarked),,"female nude mouse, colon xenograft, patient-derived colon tumour","oral, 100 mg/kg, dosed days 1 and 8",reference: saline control,optimal tumour volume T/C,4%
O=C1NC(=O)C(C2CCOc3cc(Oc4ccc(C(F)(F)F)cc4Cl)ccc32)S1 (centres unmarked),,"mouse, fasted, plasma","oral, 30 mg/kg, 30 min, median",,plasma GIP,108 pmol/L
CC[C@H]1[C@@H](O)[C@@H]2[C@H](CC[C@]3(C)[C@@H]([C@H](C)CCOS(=O)(=O)[O-])CC[C@@H]23)[C@@]2(C)CC[C@@H](O)C[C@@H]12.[Na+],"immunohistochemistry, item: collagen 1a1","ob/ob NASH mouse model, liver","10 mg/kg, 16 weeks",,fractional area,5 ± 0.3%
CN(C)c1ccc(-c2oc3ccccc3c(=O)c2OCc2ccccc2)cc1,,diabetic rat,"5 mg/kg, day 1, p-nitrophenyl β-glucoside induced",,blood glucose,407 ± 4.12 mg/dL
COC(=O)[C@H](CSSC(C)(C)[C@H](NC(=O)[C@H](CCC(=O)NC[C@H](O)[C@@H](O)[C@H](O)[C@H](O)CO)NC(=O)[C@H](CCC(=O)O)NC(=O)[C@H](CCC(=O)NC[C@H](O)[C@@H](O)[C@H](O)[C@H](O)CO)NC(=O)[C@H](CCC(=O)O)NC(=O)[C@H](CCC(=O)NC[C@H](O)[C@@H](O)[C@H](O)[C@H](O)CO)NC(=O)CC[C@H](NC(=O)c1ccc(NCc2cnc3nc(N)[nH]c(=O)c3n2)cc1)C(=O)O)C(=O)O)NC(=O)CC[C@H](NC(=O)c1ccc(NCc2cnc3nc(N)nc(N)c3n2)cc1)C(=O)O,flow cytometry,"Lewis rat, healthy, blood",1000 nmol/kg twice weekly × 1,,CD172+ CD43− monocyte effect,no effect
O=C(O)[C@H]1O[C@@H](Oc2c(-c3ccc(O)c(O)c3)oc3cc(O)cc(O)c3c2=O)[C@H](O)[C@@H](O)[C@@H]1O,ABTS scavenging,,,,IC50,58.9 µg/mL
CSCC[C@@H]1NC(=O)[C@H](CCCCN)NC(=O)[C@H]([C@@H](C)O)NC(=O)[C@H](CCCCN)NC(=O)[C@H](CC(C)C)NC(=O)[C@H](CCCCN)NC(=O)[C@H](CCCNC(=N)N)NC(=O)[C@@H]2CSSC[C@@H]3NC(=O)[C@@H]4CCCN4C(=O)[C@H](C(C)C)NC(=O)[C@H](CCC(N)=O)NC(=O)[C@H](CCC(N)=O)NC(=O)CNC(=O)[C@H](CC(C)C)NC(=O)[C@@H]4CSSC[C@H](NC(=O)[C@H]([C@@H](C)O)NC(=O)[C@H](C)NC(=O)[C@H](CSSC[C@@H](C(=O)N[C@@H](CO)C(=O)N[C@@H](CCCNC(=N)N)C(=O)N[C@H](C(N)=O)[C@@H](C)O)NC(=O)[C@@H]5CCCN5C(=O)[C@H](CC(N)=O)NC1=O)NC(=O)[C@@H]1CCCN1C(=O)[C@H](CC(=O)O)NC(=O)[C@H](CSSC[C@H](NC(=O)[C@H](CCCNC(=N)N)NC(=O)[C@H](CCCNC(=N)N)NC(=O)[C@H](CCCCN)NC(=O)[C@@H](N)CCCCN)C(=O)N[C@@H](C(C)C)C(=O)N[C@@H](CCCNC(=N)N)C(=O)N[C@@H](CC(C)C)C(=O)N[C@@H](Cc1c[nH]cn1)C(=O)N[C@@H](CCC(=O)O)C(=O)N[C@@H](CO)C(=O)N4)NC3=O)C(=O)N[C@@H](Cc1ccc(O)cc1)C(=O)N[C@H]1CSSC[C@H](NC(=O)[C@H](Cc3ccccc3)NC(=O)[C@H](C)NC(=O)[C@H](CC(N)=O)NC(=O)[C@H](Cc3ccccc3)NC(=O)[C@H](Cc3ccccc3)NC(=O)[C@H](CCCNC(=N)N)NC1=O)C(=O)N[C@@H](Cc1ccc(O)cc1)C(=O)N2,,male Long-Evans rats,"intracerebroventricular, 1.0 nmol, day 5",reference: saline,food intake,70.8 ± 7.6 % above saline
CCOC(=O)C1NC(c2ccc[n+](C)c2)C23c4c5c6c7c8c9c(c%10c%11c2c2c4c4c%12c5c5c6c6c8c8c%13c9c9c%10c%10c%11c%11c2c2c4c4c%12c%12c5c5c6c8c6c8c%13c9c9c%10c%10c%11c2c2c4c4c%12c5c6c5c8c9c%10c2c45)C713 (centres unmarked),,"SCID mouse, BCBL1 PEL xenograft","intraperitoneal, 20 mg/kg, day 21",reference: DMSO,ascites tumour weight,decreased
CC(C)C[C@H](N)C(=O)N[C@@H](CO)C(=O)N[C@@H](Cc1ccccc1)C(=O)N1CCC[C@H]1C(=O)N[C@H](C(=O)N[C@H](C(=O)N[C@@H](CCCCN)C(=O)N[C@H](C(=O)N[C@@H](Cc1ccc(O)cc1)C(=O)N[C@@H](Cc1ccccc1)C(=O)O)[C@@H](C)O)[C@@H](C)O)[C@@H](C)O,radiotelemetry,mouse normotensive,"intraperitoneal, 5 mg/kg every other day",,systolic blood pressure decrease,~5 mmHg
COc1ccc2c(c1)c(CC(=O)OCOC(C)=O)c(C)n2C(=O)c1ccc(Cl)cc1,hot plate test,BALB/c mice,"50 mg/kg, 120 min",,latency of nociceptive response,15.3 ± 1.3 s
C=C(c1ncc(C(=O)O)cn1)c1cc2c(cc1C)C(C)(C)CCC2(C)C,"RNA sequencing, item: Emr4 mRNA","rat, brain","dose not given, 24 h, single dose",reference: vehicle,log2 fold change,0.64
COc1c2c(cc3oc(C)cc(=O)c13)O[C@H](C(C)(C)O[C@@H]1O[C@H](CO)[C@@H](O)[C@H](O)[C@H]1O)C2,analgesic effect,"Kunming mouse, female","oral, 1 mg/kg, 0 h, 55 °C, before dosing, 30 s cut-off",,hot plate latency,9.27 ± 1.46 s
CCc1nnc(NS(=O)(=O)c2ccc(NC(=S)NC(=O)/C=C/c3ccc(F)cc3)cc2)s1,cell proliferation,"athymic nude mice, SK-N-AS xenograft, tumour","i.p., 20 mg/kg daily, 18 days",,reduction of Ki-67 staining,55%
CN1CCC[C@]1(C)/C=C/S(=O)(=O)NC(=O)Nc1c2c(cc3c1CCC3)CCC2,IL-1β release,"human, whole blood ex vivo","oral, 100 mg, 36 h after last dose, multiple ascending dose, together with: LPS and ATP",,inhibition,~90%
O=c1c(OCc2ccccc2)c(-c2cccc([N+](=O)[O-])c2)oc2ccccc12,,diabetic rat,"5 mg/kg, day 7, p-nitrophenyl β-glucoside induced",,blood glucose,342 ± 4.71 mg/dL
CN(C)C(=O)c1ccnc(N2Cc3cn(Cc4ccc(F)cc4F)nc3C2)n1,item: Iba1+ cell number,"cuprizone-fed mice, corpus callosum","dose not given, unit not given",reference: vehicle,effect size d,-2.16

# For quick reference, copied from above:
Compound,test,system,setting,how to read,quantity,value
Cc1cc(O)c(C=O)c2c1C(=O)Oc1c(CO)c(O)c3c(c1O2)C(O)OC3=O (centres unmarked),ABTS scavenging,,,,IC50,121 µM
O=C1/C(=C/c2ccccc2)Oc2cc(O)c3c(oc4cc(O)c(O)cc43)c21,"DPPH scavenging, absorbance",,,,EC50,200 µM
